Earlier results that unrelated publications cite.
Lines come from different studies, so protocols differ. ± marks the error that the study gave.
Cytosol aminopeptidase: Cytosol aminopeptidase (Sus scrofa, UniProt P28839)
Sequence of UniProt P28839 (whole entry, looked up): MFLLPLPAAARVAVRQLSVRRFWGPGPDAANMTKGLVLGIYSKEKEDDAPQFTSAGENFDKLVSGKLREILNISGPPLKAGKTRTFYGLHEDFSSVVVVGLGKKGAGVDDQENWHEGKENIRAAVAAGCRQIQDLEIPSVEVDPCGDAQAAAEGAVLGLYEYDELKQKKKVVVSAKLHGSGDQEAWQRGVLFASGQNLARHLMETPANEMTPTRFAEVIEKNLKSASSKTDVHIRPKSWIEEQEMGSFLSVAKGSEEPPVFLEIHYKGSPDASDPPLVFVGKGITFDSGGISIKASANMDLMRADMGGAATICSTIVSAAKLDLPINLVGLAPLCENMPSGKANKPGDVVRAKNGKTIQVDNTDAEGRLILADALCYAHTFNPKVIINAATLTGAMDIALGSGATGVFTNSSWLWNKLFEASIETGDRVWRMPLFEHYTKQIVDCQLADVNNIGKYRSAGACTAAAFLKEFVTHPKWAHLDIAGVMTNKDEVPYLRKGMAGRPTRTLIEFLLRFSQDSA
CHRNA1/CHRNG/chrnd: CHRNA1/CHRNG/chrnd (Tetronarce californica, UniProt P02710+P02714+P02718)
Sequence of UniProt P02714 (whole entry, looked up): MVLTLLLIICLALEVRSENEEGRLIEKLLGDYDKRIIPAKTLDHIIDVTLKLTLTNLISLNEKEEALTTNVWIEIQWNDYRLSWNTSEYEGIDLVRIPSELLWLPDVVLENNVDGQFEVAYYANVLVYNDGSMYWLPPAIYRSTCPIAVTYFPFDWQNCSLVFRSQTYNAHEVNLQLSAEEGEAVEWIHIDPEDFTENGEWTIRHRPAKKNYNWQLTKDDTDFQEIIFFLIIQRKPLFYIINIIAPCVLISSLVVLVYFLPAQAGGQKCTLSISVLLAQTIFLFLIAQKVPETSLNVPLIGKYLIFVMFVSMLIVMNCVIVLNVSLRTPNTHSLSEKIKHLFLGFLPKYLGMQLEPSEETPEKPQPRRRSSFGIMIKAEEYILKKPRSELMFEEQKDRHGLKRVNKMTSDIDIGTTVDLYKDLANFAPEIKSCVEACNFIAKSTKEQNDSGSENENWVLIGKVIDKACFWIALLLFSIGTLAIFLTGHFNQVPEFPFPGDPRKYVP
Sequence of UniProt P02710 (whole entry, looked up): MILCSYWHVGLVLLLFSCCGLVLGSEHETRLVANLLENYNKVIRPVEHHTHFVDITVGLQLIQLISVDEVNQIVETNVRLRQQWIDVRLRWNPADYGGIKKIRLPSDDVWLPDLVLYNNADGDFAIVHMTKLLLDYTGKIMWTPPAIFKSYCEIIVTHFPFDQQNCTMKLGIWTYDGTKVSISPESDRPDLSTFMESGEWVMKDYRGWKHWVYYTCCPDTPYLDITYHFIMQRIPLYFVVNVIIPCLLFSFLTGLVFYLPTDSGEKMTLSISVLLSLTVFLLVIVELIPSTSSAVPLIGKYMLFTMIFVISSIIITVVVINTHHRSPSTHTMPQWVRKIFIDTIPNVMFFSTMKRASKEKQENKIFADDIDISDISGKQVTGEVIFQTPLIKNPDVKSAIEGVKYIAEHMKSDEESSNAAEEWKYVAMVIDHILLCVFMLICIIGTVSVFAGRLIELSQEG
Sequence of UniProt P02718 (whole entry, looked up): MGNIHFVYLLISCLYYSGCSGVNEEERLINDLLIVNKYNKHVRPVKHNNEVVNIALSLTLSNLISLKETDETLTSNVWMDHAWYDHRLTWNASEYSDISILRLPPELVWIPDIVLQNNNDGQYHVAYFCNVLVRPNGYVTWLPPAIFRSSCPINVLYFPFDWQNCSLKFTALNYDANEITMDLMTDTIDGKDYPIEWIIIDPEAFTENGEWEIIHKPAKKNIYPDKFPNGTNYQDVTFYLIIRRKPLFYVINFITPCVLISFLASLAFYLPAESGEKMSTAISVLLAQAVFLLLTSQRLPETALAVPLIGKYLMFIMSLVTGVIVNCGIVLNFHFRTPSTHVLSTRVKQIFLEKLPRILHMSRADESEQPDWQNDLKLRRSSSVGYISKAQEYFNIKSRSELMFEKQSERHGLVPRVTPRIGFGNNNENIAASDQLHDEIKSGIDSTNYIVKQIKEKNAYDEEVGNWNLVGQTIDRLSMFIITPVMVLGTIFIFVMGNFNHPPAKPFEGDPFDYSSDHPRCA
Sequence of UniProt Q61618 (whole entry, looked up): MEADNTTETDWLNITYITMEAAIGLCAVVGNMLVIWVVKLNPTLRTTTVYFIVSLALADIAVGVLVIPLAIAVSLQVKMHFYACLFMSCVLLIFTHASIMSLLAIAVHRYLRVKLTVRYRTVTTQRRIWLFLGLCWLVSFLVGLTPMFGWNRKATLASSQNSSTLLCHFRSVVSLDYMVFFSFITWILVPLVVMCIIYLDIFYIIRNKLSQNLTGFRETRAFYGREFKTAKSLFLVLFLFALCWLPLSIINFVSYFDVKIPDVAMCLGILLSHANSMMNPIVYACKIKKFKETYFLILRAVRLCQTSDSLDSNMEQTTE
Sequence of UniProt P34972 (whole entry, looked up): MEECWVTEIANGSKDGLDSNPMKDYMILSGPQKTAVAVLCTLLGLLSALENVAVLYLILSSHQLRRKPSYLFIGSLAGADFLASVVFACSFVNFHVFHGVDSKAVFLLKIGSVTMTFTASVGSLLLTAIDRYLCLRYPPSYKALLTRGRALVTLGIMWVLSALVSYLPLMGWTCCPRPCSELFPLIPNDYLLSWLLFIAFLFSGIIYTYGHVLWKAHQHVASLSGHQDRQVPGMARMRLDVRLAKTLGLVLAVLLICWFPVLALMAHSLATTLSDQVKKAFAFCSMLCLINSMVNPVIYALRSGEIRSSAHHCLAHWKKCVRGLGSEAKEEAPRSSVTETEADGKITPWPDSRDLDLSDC
Sequence of UniProt Q5U3Y7 (whole entry, looked up): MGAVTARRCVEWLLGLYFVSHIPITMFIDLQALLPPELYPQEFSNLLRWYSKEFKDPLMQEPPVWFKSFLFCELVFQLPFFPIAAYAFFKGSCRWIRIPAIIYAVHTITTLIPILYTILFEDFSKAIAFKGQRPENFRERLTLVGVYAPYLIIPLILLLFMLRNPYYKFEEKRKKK
Sequence of UniProt P21397 (whole entry, looked up): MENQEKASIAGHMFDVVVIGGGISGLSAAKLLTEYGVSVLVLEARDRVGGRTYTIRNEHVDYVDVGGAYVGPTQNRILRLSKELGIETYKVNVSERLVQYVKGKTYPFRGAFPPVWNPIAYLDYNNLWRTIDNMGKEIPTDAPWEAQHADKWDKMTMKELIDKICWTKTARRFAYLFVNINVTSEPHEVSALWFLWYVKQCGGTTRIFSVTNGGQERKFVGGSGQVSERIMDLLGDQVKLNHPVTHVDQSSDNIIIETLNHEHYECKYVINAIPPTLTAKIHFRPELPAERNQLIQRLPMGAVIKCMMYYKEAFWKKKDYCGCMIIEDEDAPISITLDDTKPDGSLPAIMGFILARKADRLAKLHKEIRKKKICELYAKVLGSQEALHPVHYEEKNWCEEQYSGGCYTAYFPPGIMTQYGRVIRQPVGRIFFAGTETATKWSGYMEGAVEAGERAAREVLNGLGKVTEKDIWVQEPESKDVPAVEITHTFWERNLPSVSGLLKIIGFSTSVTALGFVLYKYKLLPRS
Sequence of UniProt P21918 (whole entry, looked up): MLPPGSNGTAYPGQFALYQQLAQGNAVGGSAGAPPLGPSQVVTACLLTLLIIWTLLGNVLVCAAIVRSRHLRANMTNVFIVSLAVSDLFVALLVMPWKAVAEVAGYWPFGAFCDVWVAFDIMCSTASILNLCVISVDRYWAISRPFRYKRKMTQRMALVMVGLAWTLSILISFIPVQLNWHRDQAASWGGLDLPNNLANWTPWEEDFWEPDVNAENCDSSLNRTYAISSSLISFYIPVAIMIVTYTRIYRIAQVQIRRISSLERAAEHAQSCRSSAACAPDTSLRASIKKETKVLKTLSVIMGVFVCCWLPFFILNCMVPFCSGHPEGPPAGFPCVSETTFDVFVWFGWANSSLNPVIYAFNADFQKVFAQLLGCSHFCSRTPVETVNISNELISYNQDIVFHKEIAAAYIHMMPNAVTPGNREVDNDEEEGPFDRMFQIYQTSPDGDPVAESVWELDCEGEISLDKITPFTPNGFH
Sequence of UniProt P25021 (whole entry, looked up): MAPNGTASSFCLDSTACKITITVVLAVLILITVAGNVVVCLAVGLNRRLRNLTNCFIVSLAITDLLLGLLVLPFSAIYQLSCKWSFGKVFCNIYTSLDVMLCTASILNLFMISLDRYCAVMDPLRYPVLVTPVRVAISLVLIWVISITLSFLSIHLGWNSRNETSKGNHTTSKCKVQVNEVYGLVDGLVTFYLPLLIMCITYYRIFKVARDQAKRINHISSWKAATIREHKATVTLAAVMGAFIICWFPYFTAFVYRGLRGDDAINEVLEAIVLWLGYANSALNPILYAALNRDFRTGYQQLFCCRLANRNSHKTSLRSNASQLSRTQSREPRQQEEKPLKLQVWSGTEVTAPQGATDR

The Ki of `O=C(O)Cc1cn2nc(-c3ccc(Cl)cc3)ccc2n1` is reported as 0.22 µM (GHB high-affinity site, rat; binding; rat cortical membranes).
`COc1ccc(CC[C@H]2CCC[C@@H](CCc3ccc(OC)cc3)N2C[C@@H](O)CO)cc1` (relative stereo) has a Ki of greater than 100 µM (alpha7 nicotinic acetylcholine receptor; binding; with: [3H]methyllycaconitine).
`CCCNCC(N)P(=O)(O)O` (stereo not shown) gave a Ki of greater than 800 µM (Cytosol aminopeptidase; inhibitor).
`CC=O` gave a Ki of 1800 µM (yeast alcohol dehydrogenase H44R; inhibitor, product inhibition, slope constant; pH 7.3, 30 °C).
`CC(C)CN(C[C@@H](O)[C@H](Cc1ccccc1)NC(=O)O[C@H]1CO[C@H]2OCC[C@H]21)S(=O)(=O)c1ccc(N)cc1` gave a Ki of 0.05 µM (PR S17 variant; isothermal titration calorimetry).
`N#Cc1c(N)nc(SCC(N)=O)c(C#N)c1-c1ccc(OCC2CC2)cc1` gave a Ki of 3.92 µM (Adenosine receptor A3 (Mus musculus, UniProt Q61618); binding, antagonist; mouse receptor).
The Ki of `C=C1CC[C@@H]2[C@@H](C1)c1c(OC)cc(C(C)(C)CCCCCC)cc1OC2(C)C` is reported as 0.0118 µM (CNR2 (Homo sapiens, UniProt P34972); binding).
With `CN1[C@@H](CC(=O)c2ccccc2)CCC[C@H]1C[C@H](O)c1ccccc1` the Ki was 31.6 µM (Slc6a3 (Rattus norvegicus, UniProt P23977); inhibitor).
`O=[As](O)(O)O` has a Ki of 4600 µM (Triosephosphate isomerase, glycosomal (Trypanosoma brucei brucei, UniProt P04789, L232A); enzyme activity, inhibitor; pH 7.5, 25 °C, ionic strength 0.1 (NaCl), with: dihydroxyacetone phosphate).
For `CN1[C@@H](CCc2ccccc2)CCC[C@H]1CCc1ccccc1`, the Ki was 43.1 µM (alpha7 nicotinic acetylcholine receptor; binding; with: [3H]methyllycaconitine).
With `O=c1c(-c2ccc3c(c2)OCO3)ccc2n1C[C@@H]1CNC[C@H]2C1` the Ki was greater than 10 µM (CHRNA1/CHRNG/chrnd).
The Ki of `CSC[C@H]1CN(Cc2c[nH]c3c(N)ncnc23)C[C@@H]1O` is reported as 8.6e-05 µM (MTAP (Homo sapiens, UniProt Q13126); inhibitor).
With `O=c1c(-c2ccccc2)ccc2n1C[C@@H]1CNC[C@H]2C1` the Ki was greater than 10 µM (CHRNA1/CHRNG/chrnd).
`C=CCN(CC=C)CCc1c[nH]c2ccccc12` gave a Ki of greater than 10 µM (DRD5 (Homo sapiens, UniProt P21918); binding; cloned human receptor; with: [3H]SCH23390).
`O=C(c1ccc(F)cc1)C1CCN([C@@H]2Cc3ccccc3C[C@H]2O)CC1` (relative stereo) gave a Ki of 0.251 ± 0.0392 µM (Tmem97 (Rattus norvegicus, UniProt Q5U3Y7); rat liver membranes).
For `CC(C)CNCC(N)P(=O)(O)O` (stereo not shown), the Ki was greater than 800 µM (Cytosol aminopeptidase; inhibitor).
`C=CCN(CC=C)CCc1c[nH]c2ccc(OC)cc12` has a Ki of greater than 10 µM (HRH2 (Homo sapiens, UniProt P25021)).
With `CN1C/C(=C\c2ccc(Cl)cc2Cl)C/C(=C\c2ccc(Cl)cc2Cl)C1` the Ki was greater than 100 µM (alpha7 nicotinic acetylcholine receptor; binding; with: [3H]methyllycaconitine).
`C=C1C[C@@H]2C[C@@H]3CC(=C)C[C@H](/C=C/C(C)(C)[C@]4(O)O[C@@H](C/C(=C\C(=O)OC)[C@@H]4OC(=O)/C=C/C=C/CCC)C[C@H]([C@@H](C)O)OC(=O)C[C@H](O)C[C@H](C1)O2)O3` gave a Ki of 0.0007 ± 1e-05 µM (PRKCA (Homo sapiens, UniProt P17252); binding, competitive).
The Ki of `O=S(=O)(Nc1ccc(Oc2ccccc2)cc1)c1ccc(Br)cc1` is reported as greater than 100 µM (Cocaine esterase (CES2, Homo sapiens, UniProt O00748)).
The Ki of `Nc1nc2c(ncn2[C@@H]2O[C@H](COP(=O)(O)OP(=O)(O)OP(=O)(O)O)[C@@H](O)[C@H]2O)c(=O)[nH]1` is reported as 0.119 µM (dengue virus 2 capsid protein; fluorescence polarisation competition).
For `COc1cc(O)c2c(O)c3c(=O)cc(C)oc3cc2c1`, the Ki was 4.38 µM (MAOA (Homo sapiens, UniProt P21397); competitive inhibitor; binding to free enzyme).
`COc1ccc2[nH]cc(CCNCc3ccc(Cl)cc3)c2c1` gave a Ki of 0.105 µM (HTR2A (Homo sapiens, UniProt P28223); binding; with: agonist radioligand).
`CC(C)[C@H](NC(=O)[C@H](CCC(=O)O)NC(=O)[C@H](Cc1ccccc1)NC(=O)[C@@H](C)NC(=O)[C@@H](N)Cc1ccc(O)cc1)C(=O)N[C@H](C(=O)NCC(N)=O)C(C)C` gave a Ki of 0.00012 µM (Oprd1 (Rattus norvegicus, UniProt P33533); binding; rat brain synaptosomes).
`O=C(NO)c1ccccc1` has a Ki of 110 ± 10 µM (MR Y54W; competitive inhibitor; with: 15 mM Mg2+).

Repeated from above:
`C=CCN(CC=C)CCc1c[nH]c2ccc(OC)cc12` has a Ki of greater than 10 µM (HRH2 (Homo sapiens, UniProt P25021)).
